Measured values pooled from the literature.
Protocols differ between the studies behind these lines. ± marks the error that the study gave.
B1: enzyme E416A (Streptomyces platensis, UniProt A0A0A0V031); chain MQHTTIGDVLREHRRSHPGRTALVDGPVRLTWPELDDRVNRLAGSLAASGIGRGDRIMWLGQNSFRVYELIAAAGKLGAMVCVGYWRWAPPEMEFALRDFDPHLVVWQHQEIHETVARTREALGSDDTARWLRHDSAPQDPDGYEAFLAAGGLADPDLDIDPDSPVLVLYTAAMSGRQCGSLLSHTNLIAMATAAAWLGDIDHTTAFLNSGPMFHIGNHQFWGMPTLLMAGKNVIVRRVVAEEVRDLLVAEECTHAFLMPPTVAEIVRLNRDTGHDLSRLRATVAPHLWEGMATTDTSRFTRSGAAAGRGYGQTELSGFAVTAAYGGPAAGNAGRPGPGLTVRVLDTAGRECAVGEAGEICARGTVVHRGYWNRDEVNAHRFRSGWWHTTDLGRREPDGSLTFLGTTTRMLKSAAANIFPAEVENCIEQHPAVREAAVIGVPNTRWAQDVKAVVVLEPDAGVSEQEIIDHCRPRIASYKKPKSVAFAAALPRTVSGARDYDALDKEYGGGGYPGAATLGPGR
B2: dmaW (Aspergillus fumigatus, UniProt Q50EL0); chain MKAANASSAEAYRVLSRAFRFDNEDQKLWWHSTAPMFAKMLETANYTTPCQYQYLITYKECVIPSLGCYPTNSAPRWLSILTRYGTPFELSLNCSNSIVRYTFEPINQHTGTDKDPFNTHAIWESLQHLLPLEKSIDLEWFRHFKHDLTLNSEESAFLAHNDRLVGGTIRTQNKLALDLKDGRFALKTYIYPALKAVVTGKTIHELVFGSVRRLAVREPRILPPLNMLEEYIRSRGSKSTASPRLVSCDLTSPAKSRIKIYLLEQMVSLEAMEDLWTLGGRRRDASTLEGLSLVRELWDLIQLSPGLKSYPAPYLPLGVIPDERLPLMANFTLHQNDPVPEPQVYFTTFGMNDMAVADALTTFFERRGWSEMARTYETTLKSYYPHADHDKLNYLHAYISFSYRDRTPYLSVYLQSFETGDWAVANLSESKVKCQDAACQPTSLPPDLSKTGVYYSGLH
Chain of UniProt P0CAW2 (whole entry, unmodified, looked up): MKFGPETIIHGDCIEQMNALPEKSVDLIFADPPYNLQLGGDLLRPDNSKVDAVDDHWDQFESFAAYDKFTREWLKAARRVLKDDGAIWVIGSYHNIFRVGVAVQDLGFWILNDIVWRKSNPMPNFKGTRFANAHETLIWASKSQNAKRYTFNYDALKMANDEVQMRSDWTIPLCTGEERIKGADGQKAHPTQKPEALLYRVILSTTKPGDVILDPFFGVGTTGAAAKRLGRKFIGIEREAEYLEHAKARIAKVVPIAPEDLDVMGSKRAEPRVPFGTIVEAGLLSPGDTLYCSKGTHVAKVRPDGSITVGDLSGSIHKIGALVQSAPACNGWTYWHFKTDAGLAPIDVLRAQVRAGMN
Chain of UniProt P21729 (whole entry, looked up): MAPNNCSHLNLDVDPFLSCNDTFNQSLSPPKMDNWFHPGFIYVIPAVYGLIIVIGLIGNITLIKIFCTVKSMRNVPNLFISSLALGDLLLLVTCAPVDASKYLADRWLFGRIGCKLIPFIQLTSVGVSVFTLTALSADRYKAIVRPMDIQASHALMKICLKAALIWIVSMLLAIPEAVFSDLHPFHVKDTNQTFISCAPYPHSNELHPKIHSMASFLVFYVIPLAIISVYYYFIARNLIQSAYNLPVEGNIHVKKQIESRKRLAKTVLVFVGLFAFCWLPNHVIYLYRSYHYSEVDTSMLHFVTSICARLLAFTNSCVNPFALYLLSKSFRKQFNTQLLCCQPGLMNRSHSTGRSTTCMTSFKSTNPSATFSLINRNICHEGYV

Molecule | target or system | assay | system | setting | how to read | measurement | result
ATTTAAGATATCTTAAAT (dsDNA; 3-deaza-A at 9 and 10) | repressor C2 1-216 (Salmonella phage P22, UniProt P69202) | filter binding | double-stranded DNA, one strand shown | – | – | binding | no binding
B1 (enzyme E416A) | C[C@@]12CCC[C@@](C)(C(=O)OP(=O)(O)OC[C@H]3O[C@@H](n4cnc5c(N)ncnc54)[C@H](O)[C@@H]3O)[C@H]1C[C@@H](O)[C@]13C[C@H]4C[C@H](O[C@@]4(C)C1)[C@@H]23 | steady-state kinetics | – | pH 7.8, 25 °C | – | kcat/Km | 500000 M⁻¹ s⁻¹
C=Cc1c(C)c2cc3nc(c4c5[nH]c(cc6nc(cc1[nH]2)C(C)=C6CC)c(C)c5C(=O)C4)[C@@H](CCC(=O)NCC(=O)N1CCC[C@H]1C(=O)N[C@@H](CC(C)C)C(=O)NCC(=O)N[C@@H](Cc1ccccc1)C(=O)N[C@@H](CCCNC(=N)N)C(=O)N[C@H](C(=O)NCC(=O)N[C@@H](CCCCN)C(N)=O)C(C)C)[C@@H]3C | OA patient chondrocytes | flow cytometry, measured: cellular uptake | – | 1 µM, 6 h | – | fluorescent cells | 80%
GATTACTAAAGCTCAAAAGAAAATTTTCTACGAGGTTTTAGAGCTGTGCTGTTTCGAATGGTTCCAAAAC (ssDNA) | csn2 full length assumed (Streptococcus agalactiae, UniProt E7S4M0) | EMSA | single-stranded DNA | – | – | binding | no binding
N=C(N)NCCC[C@@H]1NC(=O)[C@H](CCCCNC(=O)CCOCCOCCOCCOCCNC(=O)CC[C@H](NC(=O)CCOCCOCCOCCOCCNC(=O)CC[C@H](NC(=O)CN2CCN(CC(=O)O)CCN(CC(=O)O)CCN(CC(=O)O)CC2)C(=O)NCCOCCOCCOCCOCCC(=O)N[C@@H](CCC(=O)NCCOCCOCCOCCOCCC(=O)NCCCC[C@@H]2NC(=O)[C@@H](Cc3ccccc3)NC(=O)[C@H](CC(=O)O)NC(=O)CNC(=O)[C@H](CCCNC(=N)N)NC2=O)C(=O)NCCOCCOCCOCCOCCC(=O)NCCCC[C@@H]2NC(=O)[C@@H](Cc3ccccc3)NC(=O)[C@H](CC(=O)O)NC(=O)CNC(=O)[C@H](CCCNC(=N)N)NC2=O)C(=O)NCCOCCOCCOCCOCCC(=O)NCCCC[C@@H]2NC(=O)[C@@H](Cc3ccccc3)NC(=O)[C@H](CC(=O)O)NC(=O)CNC(=O)[C@H](CCCNC(=N)N)NC2=O)NC(=O)[C@@H](Cc2ccccc2)NC(=O)[C@H](CC(=O)O)NC(=O)CNC1=O [indium-111 labelled] | – | – | athymic nude mice, female, U-87 MG glioma xenograft, tumour and muscle | intravenous, 1 h | relative to: tumour over muscle | tumour to tissue ratio | 10.9 ± 2.51
CCCC[C@H](NC(=O)CNC(=O)CNC(=O)c1ccc(NN)nc1)C(=O)N[C@H]1CC(=O)NCCCC[C@@H](C(N)=O)NC(=O)[C@H](Cc2c[nH]c3ccccc23)NC(=O)[C@H](CCCNC(=N)N)NC(=O)[C@@H](Cc2ccccc2)NC(=O)[C@H](Cc2c[nH]cn2)NC1=O [technetium-99m labelled] | – | – | C57 mouse, B16/F1 melanoma-bearing, liver | intravenous, 24 h | – | tissue uptake | 0.16 ± 0.02 %ID/g
N=C(N)NCCC[C@@H]1NC(=O)[C@H](CCCCNC(=O)CC[C@H](NC(=O)CCOCCOCCOCCOCCNC(=O)CN2CCN(CC(=O)O)CCN(CC(=O)O)CCN(CC(=O)O)CC2)C(=O)NCCCC[C@@H]2NC(=O)[C@@H](Cc3ccccc3)NC(=O)[C@H](CC(=O)O)NC(=O)CNC(=O)[C@H](CCCNC(=N)N)NC2=O)NC(=O)[C@@H](Cc2ccccc2)NC(=O)[C@H](CC(=O)O)NC(=O)CNC1=O [indium-111 labelled] | – | – | athymic nude mice, female, U-87 MG glioma xenograft, tumour and muscle | intravenous, 1 h | relative to: tumour over muscle | tumour to tissue ratio | 6.18 ± 0.49
C[C@H]1COc2c(N3CCN(C)CC3)c(F)cc3c(=O)c(C(=O)N[C@@H](CCCNC(=N)N)C(=O)N[C@@H](Cc4ccc(-c5ccccc5)cc4)C(=O)N[C@@H](CCCNC(=N)N)C(=O)N[C@@H](Cc4ccc(-c5ccccc5)cc4)C(=O)N[C@@H](CCCNC(=N)N)C(N)=O)cn1c23 | human erythrocytes | – | – | 100 µM, 1 h, 37 °C | relative to: Triton X-100 | hemolysis | 2.7 ± 0.004%
N=C(N)NCCC[C@@H]1NC(=O)[C@H](CCCCNC(=O)CC[C@H](NC(=O)CCOCCOCCOCCOCCNC(=O)CC[C@H](NC(=O)CN2CCN(CC(=O)O)CCN(CC(=O)O)CCN(CC(=O)O)CC2)C(=O)NCCOCCOCCOCCOCCC(=O)N[C@@H](CCC(=O)NCCCC[C@@H]2NC(=O)[C@@H](Cc3ccccc3)NC(=O)[C@H](CC(=O)O)NC(=O)CNC(=O)[C@H](CCCNC(=N)N)NC2=O)C(=O)NCCCC[C@@H]2NC(=O)[C@@H](Cc3ccccc3)NC(=O)[C@H](CC(=O)O)NC(=O)CNC(=O)[C@H](CCCNC(=N)N)NC2=O)C(=O)NCCCC[C@@H]2NC(=O)[C@@H](Cc3ccccc3)NC(=O)[C@H](CC(=O)O)NC(=O)CNC(=O)[C@H](CCCNC(=N)N)NC2=O)NC(=O)[C@@H](Cc2ccccc2)NC(=O)[C@H](CC(=O)O)NC(=O)CNC1=O [indium-111 labelled] | – | – | female athymic nude mice, muscle | intravenous, 3 µCi, 1 h, U-87 MG glioma xenograft | – | tissue uptake | 0.91 ± 0.37 %ID/g
CC(C)(C)n1cc(CN(Cc2cn(CCOCCOCCOCCOCCOCCOCCC(=O)N[C@@H](CCCNC(=N)N)C(=O)N[C@@H](CCCCN)C(=O)N[C@@H](CCCCN)C(=O)N[C@@H](CCCNC(=N)N)C(=O)N[C@@H](CCCNC(=N)N)C(=O)N[C@@H](CCC(N)=O)C(=O)N[C@@H](CCCNC(=N)N)C(=O)N[C@@H](CCCNC(=N)N)C(=O)N[C@@H](CCCNC(=N)N)C(N)=O)nn2)Cc2cn(C(C)(C)C)nn2)nn1 | HUVEC | cellular uptake, LC-ESI-MS/MS | – | 200 µM, 10 min, added: CuSO4 100 µM and ascorbate 500 µM | – | intracellular concentration | 32.9 ± 0.4 µM
ATGATCAGTACGATGTTCACTGTACTCTGACTCGCCTGACATGACTGACGGACTTGCACT (ssDNA) | ccrMIM 1-358 (Caulobacter vibrioides, UniProt P0CAW2) | EMSA | single-stranded DNA | added: sinefungin 60 µM | – | Kd | 18.5 ± 5.7 nM
ATTTAAGATATCTTAAAT (dsDNA) | repressor C2 1-216 N46C (Salmonella phage P22, UniProt P69202) | filter binding | double-stranded DNA, one strand shown | NaCl 50 mM | – | Kd | 57.6 nM
ATGATCAGTACGATGTTCACTGTACTCTGACTCGCCTGACATGACTGACGGACTTGCACT (dsDNA; hemimethylated N6-methyladenine) | ccrMIM 1-358 E280A (Caulobacter vibrioides, UniProt P0CAW2) | EMSA | double-stranded DNA, one strand shown | added: sinefungin 60 µM | – | binding | binds
CCCNC(=O)[C@H](CC(C)C)NC(=O)[C@H](Cc1c[nH]cn1)NC(=O)CNC(=O)[C@@H](NC(=O)[C@H](C)NC(=O)[C@H](Cc1c[nH]c2ccccc12)NC(=O)[C@H](CCC(N)=O)NC(=O)[C@@H](Cc1ccccc1)NC(=O)CCCCCNC(=O)CN1CCN(CC(=O)O)CCN(CC(=O)O)CCN(CC(=O)O)CC1)C(C)C [indium-111 labelled] | Gastrin-releasing peptide receptor (Mus musculus, UniProt P21729) | biodistribution | CF-1 mice, pancreas | intravenous, 1 h, unblocked | – | tissue uptake | 2.04 ± 0.17 %ID/g
B2 (dmaW) | C/C(Cl)=C/COP(=O)(O)OP(=O)(O)O | steady-state kinetics | – | pH 7.5, 35 °C | – | kcat/Km | 41.7 ± 6.67 M⁻¹ s⁻¹

A few entries again:
Molecule | target or system | assay | system | setting | how to read | measurement | result
N=C(N)NCCC[C@@H]1NC(=O)[C@H](CCCCNC(=O)CCOCCOCCOCCOCCNC(=O)CC[C@H](NC(=O)CCOCCOCCOCCOCCNC(=O)CC[C@H](NC(=O)CN2CCN(CC(=O)O)CCN(CC(=O)O)CCN(CC(=O)O)CC2)C(=O)NCCOCCOCCOCCOCCC(=O)N[C@@H](CCC(=O)NCCOCCOCCOCCOCCC(=O)NCCCC[C@@H]2NC(=O)[C@@H](Cc3ccccc3)NC(=O)[C@H](CC(=O)O)NC(=O)CNC(=O)[C@H](CCCNC(=N)N)NC2=O)C(=O)NCCOCCOCCOCCOCCC(=O)NCCCC[C@@H]2NC(=O)[C@@H](Cc3ccccc3)NC(=O)[C@H](CC(=O)O)NC(=O)CNC(=O)[C@H](CCCNC(=N)N)NC2=O)C(=O)NCCOCCOCCOCCOCCC(=O)NCCCC[C@@H]2NC(=O)[C@@H](Cc3ccccc3)NC(=O)[C@H](CC(=O)O)NC(=O)CNC(=O)[C@H](CCCNC(=N)N)NC2=O)NC(=O)[C@@H](Cc2ccccc2)NC(=O)[C@H](CC(=O)O)NC(=O)CNC1=O [indium-111 labelled] | – | – | athymic nude mice, female, U-87 MG glioma xenograft, tumour and muscle | intravenous, 1 h | relative to: tumour over muscle | tumour to tissue ratio | 10.9 ± 2.51
ATTTAAGATATCTTAAAT (dsDNA) | repressor C2 1-216 N46C (Salmonella phage P22, UniProt P69202) | filter binding | double-stranded DNA, one strand shown | NaCl 50 mM | – | Kd | 57.6 nM
